{"data": "Measured values pooled from the literature", "DPP9": "Dipeptidyl peptidase 9 (DPP9, Homo sapiens, UniProt Q86TI2)", "IL1RL2": "Interleukin-1 receptor-like 2 (IL1RL2, Homo sapiens, UniProt Q9HB29)", "note": "Compare with care: the assays were run in different laboratories. Several values in a cell are separate wells, animals, samples, runs or records.", "UniProt Q86TI2, sequence (whole entry, looked up)": "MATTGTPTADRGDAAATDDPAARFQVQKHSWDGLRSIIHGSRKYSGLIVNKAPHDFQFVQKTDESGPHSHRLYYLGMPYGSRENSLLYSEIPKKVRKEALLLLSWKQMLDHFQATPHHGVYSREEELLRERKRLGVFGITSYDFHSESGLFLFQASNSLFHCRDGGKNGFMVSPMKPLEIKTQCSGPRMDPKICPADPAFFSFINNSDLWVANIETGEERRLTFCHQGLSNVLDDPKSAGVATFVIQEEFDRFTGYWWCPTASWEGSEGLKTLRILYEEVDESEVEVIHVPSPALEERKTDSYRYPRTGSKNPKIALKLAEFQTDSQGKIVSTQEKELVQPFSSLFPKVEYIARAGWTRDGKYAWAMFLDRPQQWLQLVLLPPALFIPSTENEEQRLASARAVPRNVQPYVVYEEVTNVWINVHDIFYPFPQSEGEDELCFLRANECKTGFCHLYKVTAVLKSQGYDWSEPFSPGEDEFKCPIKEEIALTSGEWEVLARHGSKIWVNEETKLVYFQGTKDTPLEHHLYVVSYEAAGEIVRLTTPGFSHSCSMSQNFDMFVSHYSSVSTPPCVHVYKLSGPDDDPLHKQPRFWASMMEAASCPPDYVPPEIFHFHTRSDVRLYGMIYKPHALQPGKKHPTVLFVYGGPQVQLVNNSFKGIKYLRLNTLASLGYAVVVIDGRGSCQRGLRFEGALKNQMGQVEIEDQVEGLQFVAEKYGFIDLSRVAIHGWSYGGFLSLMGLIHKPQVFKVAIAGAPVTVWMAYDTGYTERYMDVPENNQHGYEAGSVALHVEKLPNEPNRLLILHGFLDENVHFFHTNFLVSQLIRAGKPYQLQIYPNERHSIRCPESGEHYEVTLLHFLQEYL", "UniProt Q9HB29, sequence (whole entry, looked up)": "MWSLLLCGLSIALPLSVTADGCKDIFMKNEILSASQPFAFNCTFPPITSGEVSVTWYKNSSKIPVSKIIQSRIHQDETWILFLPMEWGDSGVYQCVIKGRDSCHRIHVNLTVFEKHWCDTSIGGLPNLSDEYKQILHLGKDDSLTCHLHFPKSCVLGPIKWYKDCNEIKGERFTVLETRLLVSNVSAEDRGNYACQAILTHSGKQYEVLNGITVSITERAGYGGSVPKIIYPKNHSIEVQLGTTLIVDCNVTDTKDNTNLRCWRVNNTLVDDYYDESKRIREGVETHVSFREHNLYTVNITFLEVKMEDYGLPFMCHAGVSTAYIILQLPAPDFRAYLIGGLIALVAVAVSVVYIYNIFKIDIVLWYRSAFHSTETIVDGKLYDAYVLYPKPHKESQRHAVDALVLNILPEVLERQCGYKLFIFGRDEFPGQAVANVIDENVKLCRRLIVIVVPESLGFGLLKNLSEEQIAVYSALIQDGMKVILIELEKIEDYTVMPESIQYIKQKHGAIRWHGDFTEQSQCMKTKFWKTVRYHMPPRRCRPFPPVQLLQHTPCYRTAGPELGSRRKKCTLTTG", "UniProt Q02763, sequence (whole entry, unmodified, looked up)": "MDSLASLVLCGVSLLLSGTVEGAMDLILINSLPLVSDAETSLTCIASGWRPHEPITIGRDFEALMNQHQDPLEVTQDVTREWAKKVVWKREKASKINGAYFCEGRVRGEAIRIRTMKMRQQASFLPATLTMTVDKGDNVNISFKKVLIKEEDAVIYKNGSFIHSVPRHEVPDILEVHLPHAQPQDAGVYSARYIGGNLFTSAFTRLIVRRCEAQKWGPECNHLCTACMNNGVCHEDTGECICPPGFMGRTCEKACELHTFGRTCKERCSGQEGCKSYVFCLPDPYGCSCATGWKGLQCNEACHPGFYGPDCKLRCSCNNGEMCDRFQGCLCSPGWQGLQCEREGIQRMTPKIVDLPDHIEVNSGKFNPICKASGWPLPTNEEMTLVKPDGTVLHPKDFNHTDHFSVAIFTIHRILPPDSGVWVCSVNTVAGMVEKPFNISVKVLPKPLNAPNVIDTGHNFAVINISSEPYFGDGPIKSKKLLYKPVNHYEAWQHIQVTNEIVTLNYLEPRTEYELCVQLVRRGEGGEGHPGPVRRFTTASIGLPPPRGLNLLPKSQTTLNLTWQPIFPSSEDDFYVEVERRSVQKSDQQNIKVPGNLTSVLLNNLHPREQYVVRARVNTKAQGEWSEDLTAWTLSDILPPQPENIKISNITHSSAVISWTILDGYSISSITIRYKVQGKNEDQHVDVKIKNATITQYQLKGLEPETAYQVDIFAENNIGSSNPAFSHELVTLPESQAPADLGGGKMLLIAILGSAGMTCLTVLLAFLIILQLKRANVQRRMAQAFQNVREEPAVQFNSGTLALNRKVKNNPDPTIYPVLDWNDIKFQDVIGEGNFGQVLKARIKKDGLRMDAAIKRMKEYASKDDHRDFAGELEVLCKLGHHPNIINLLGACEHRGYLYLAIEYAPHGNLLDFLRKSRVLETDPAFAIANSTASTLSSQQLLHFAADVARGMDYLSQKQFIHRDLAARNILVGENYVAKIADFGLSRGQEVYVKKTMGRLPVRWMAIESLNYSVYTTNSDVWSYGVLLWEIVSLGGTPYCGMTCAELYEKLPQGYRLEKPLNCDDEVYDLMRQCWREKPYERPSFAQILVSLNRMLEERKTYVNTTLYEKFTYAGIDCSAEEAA", "UniProt P54132, sequence (whole entry, looked up)": "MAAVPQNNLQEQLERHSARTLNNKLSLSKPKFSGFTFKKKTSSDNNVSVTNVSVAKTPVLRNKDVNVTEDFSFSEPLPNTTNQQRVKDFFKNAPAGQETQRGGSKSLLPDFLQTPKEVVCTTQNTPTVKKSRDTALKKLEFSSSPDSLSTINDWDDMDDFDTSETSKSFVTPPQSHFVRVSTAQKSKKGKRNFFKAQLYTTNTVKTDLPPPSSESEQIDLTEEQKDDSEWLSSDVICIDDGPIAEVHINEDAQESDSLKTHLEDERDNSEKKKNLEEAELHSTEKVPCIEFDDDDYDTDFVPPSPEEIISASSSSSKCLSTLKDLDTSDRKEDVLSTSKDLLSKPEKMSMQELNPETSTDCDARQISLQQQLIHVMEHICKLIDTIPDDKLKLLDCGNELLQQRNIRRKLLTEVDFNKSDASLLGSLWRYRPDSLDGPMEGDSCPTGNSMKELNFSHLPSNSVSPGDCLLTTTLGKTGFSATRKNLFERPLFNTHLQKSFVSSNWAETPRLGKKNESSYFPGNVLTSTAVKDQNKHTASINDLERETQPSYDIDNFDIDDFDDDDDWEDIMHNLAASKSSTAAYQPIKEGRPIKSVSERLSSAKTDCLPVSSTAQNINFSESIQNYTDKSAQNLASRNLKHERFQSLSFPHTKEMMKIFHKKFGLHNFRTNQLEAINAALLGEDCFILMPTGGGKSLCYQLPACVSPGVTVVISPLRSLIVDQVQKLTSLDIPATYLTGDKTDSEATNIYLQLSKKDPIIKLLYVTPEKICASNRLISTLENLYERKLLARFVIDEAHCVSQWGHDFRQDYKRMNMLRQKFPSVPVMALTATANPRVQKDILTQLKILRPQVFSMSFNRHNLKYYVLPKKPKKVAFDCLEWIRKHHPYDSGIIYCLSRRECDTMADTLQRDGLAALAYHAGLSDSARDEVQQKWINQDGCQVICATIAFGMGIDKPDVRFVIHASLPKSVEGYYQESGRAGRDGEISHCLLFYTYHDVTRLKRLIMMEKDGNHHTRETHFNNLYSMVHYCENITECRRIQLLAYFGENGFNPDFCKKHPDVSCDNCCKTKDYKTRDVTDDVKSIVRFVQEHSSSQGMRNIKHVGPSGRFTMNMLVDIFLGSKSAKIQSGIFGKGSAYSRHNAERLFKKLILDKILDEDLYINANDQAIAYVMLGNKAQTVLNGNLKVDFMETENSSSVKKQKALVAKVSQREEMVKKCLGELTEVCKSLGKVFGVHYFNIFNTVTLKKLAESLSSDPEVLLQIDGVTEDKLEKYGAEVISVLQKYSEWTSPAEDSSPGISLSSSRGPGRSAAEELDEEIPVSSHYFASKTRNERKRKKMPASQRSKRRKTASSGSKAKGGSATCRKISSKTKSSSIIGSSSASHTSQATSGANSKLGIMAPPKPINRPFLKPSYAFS", "UniProt Q16539, sequence (whole entry, looked up)": "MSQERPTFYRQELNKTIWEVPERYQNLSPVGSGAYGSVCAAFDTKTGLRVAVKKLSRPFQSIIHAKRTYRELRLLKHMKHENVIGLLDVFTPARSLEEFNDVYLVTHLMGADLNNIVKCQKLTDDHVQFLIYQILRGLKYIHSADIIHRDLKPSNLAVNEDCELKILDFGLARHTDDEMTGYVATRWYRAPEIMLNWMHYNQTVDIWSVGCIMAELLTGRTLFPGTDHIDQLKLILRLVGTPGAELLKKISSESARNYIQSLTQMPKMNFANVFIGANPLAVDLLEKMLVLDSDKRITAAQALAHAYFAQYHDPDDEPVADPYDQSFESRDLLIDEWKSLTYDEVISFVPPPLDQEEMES", "UniProt P33261, sequence (whole entry, looked up)": "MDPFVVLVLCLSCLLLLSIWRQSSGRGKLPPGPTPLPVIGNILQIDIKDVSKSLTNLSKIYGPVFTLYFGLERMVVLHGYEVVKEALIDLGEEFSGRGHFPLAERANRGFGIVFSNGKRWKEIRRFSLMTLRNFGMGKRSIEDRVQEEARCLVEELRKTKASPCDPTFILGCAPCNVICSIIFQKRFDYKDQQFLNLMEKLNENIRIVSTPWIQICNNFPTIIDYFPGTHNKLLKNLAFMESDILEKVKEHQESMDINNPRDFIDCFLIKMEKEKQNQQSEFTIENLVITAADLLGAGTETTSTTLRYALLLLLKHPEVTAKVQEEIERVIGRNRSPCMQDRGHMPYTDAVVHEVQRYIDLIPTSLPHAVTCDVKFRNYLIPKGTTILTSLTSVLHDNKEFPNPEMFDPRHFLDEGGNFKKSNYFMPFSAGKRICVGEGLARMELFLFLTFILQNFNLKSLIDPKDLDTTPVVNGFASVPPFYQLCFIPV"}
{"SMILES": "COc1cc(Nc2nc(C)cc(-c3cnn4nc(OC)ccc34)n2)cc(C(F)(F)F)c1", "target or system": "FLT3 (Homo sapiens, UniProt P36888)", "test": "inhibitor", "setting": "1 µM", "how to read": "relative to: control", "measurement": "remaining activity", "value": "100%"}
{"SMILES": "C=CC(=O)Nc1cccc(Cn2ncc3cnc(Nc4cnn(CCOC)c4)nc32)c1", "target or system": "NEK9 human", "test": "binding, KINOMEscan", "setting": "100 nM", "how to read": "lower = stronger binding", "measurement": "percent of control", "value": "99%"}
{"SMILES": "CCC1(CC)C(=O)N(c2cccc(CN3CCN(Cc4cccc5cccnc45)CC3)c2)C1=O", "target or system": "DPP9", "test": "enzyme activity, inhibitor", "setting": "5 µM", "measurement": "remaining activity", "value": "39%"}
{"SMILES": "CNC(=O)C1CCCN(C(=O)C2CC3CCC2N3C(=O)[C@@H]2C[C@@H](O)CN2C(=O)NCc2cccc(Cl)c2F)C1 (mixture of isomers)", "target or system": "CYP2C19 (Homo sapiens, UniProt P33261)", "test": "enzyme activity, inhibitor, time-dependent inhibition", "setting": "1.85 µM, preincubated with NADPH", "how to read": "relative to: negative control", "measurement": "remaining activity", "value": "103%"}
{"SMILES": "C[C@](C(=O)NC1CCOCC1)(c1cncnc1)N(C(=O)[C@H](F)Cl)c1ccc(OC(F)(F)Cl)cc1", "target or system": "DPP4 (Homo sapiens, UniProt P27487)", "test": "enzyme activity, inhibitor", "setting": "10 µM", "measurement": "remaining activity", "value": "95.6%"}
{"SMILES": "CC(C)[C@@H]1NC(=O)[C@H](Cc2ccccc2)NC(=O)CSC[C@@H](C(N)=O)NC(=O)[C@H](CCC(=O)O)NC(=O)[C@H](CO)NC(=O)[C@H](Cc2c[nH]c3cccc(Cl)c23)NC(=O)[C@H](C2CCCCC2)NC(=O)[C@H](C(C)C)NC(=O)[C@H](Cc2ccc(O)cc2)NC(=O)[C@H](CC(=O)O)NC(=O)[C@H](Cc2c[nH]c3ccccc23)NC(=O)[C@H](Cc2ccc(N)nc2)NC(=O)[C@H](Cc2c[nH]c3ccc(Cl)cc23)NC(=O)[C@H](CCC(=O)O)NC1=O", "target or system": "IL1RL2", "test": "reporter gene (SEAP), inhibitor, HEK-Blue IL-36R reporter", "test system": "HEK-Blue IL-36R cells", "setting": "11.11 µM, 6 h, together with: IL-36β 100 ng/mL", "measurement": "remaining activity", "value": "95.4%"}
{"SMILES": "Nc1ncc(-c2cc(-c3cnn(CC(F)(F)F)c3)ncc2F)nc1C(=O)NC1CNCC(F)C1 (stereo not drawn)", "target or system": "IRAK3", "test": "KINOMEscan", "setting": "1 µM", "how to read": "relative to: control", "measurement": "remaining binding", "value": "0%"}
{"SMILES": "CCN(CC)CC#CCNc1ccnc2cc(Cl)ccc12", "target or system": "Salmonella typhimurium", "test": "mini-Ames test", "test system": "TA1535", "setting": "500.0 µg/well, without S9", "measurement": "revertants", "value": "1 revertants/well and 5 revertants/well"}
{"SMILES": "CCC1(CC)C(=O)N(c2cccc(CN3CCN(Cc4cccc5ccccc45)CC3)c2)C1=O", "target or system": "DPP9", "test": "enzyme activity, inhibitor", "setting": "5 µM", "measurement": "remaining activity", "value": "45%"}
{"SMILES": "COC1CN([C@H]2CC[C@H]([C@@]3(C)Oc4c(Cl)cc(C(=O)NCc5c(SC)cc(C)[nH]c5=O)c(C)c4O3)CC2)C1", "test": "RNA-seq, measured: RUNX1T1 mouse homolog", "test system": "mouse, HT-1376 xenograft, whole blood", "setting": "dose not given", "how to read": "relative to: vehicle", "measurement": "log2 fold change", "value": 3.53}
{"SMILES": "COc1ccccc1-c1ccncc1C(=O)Nc1nnc(OCc2ccc(Cl)cc2)s1", "target or system": "RecQ-like DNA helicase BLM, residues 636–1298 (BLM, Homo sapiens, UniProt P54132)", "test": "ATPase activity, ADP-Glo", "setting": "0.48 µM, 1 h", "measurement": "remaining activity", "value": "94%"}
{"SMILES": "Cc1cnc2nc1Nc1cccc(c1)COC/C=C/COCc1cc(ccc1OCCN1CCOCC1)N2", "target or system": "EGFR (Homo sapiens, UniProt P00533, del746-750)", "setting": "concentration not given", "how to read": "relative to: untreated control", "measurement": "remaining activity", "value": "77%"}
{"SMILES": "COc1ccccc1CCN1CNc2c(c(=O)[nH]c(=O)n2-c2cccc(Cl)c2C)C1", "target or system": "P2X purinoceptor 7 (Ailuropoda melanoleuca, UniProt G1M6C4)", "test": "ATP-evoked current, inhibitor, whole-cell patch clamp", "test system": "HEK293 transfected", "setting": "0.03 µM, wild type", "measurement": "remaining activity", "value": "98%"}
{"SMILES": "CO[C@@H]1[C@@H](OC(=O)c2ccc(C)[nH]2)[C@@H](O)[C@H](Oc2ccc3c(O)c(NC(=O)c4c[nH]c(C(=O)Nc5c(O)c6ccc(O[C@@H]7OC(C)(C)[C@H](OC)[C@@H](OC(=O)c8ccc(C)[nH]8)[C@H]7O)c(C)c6oc5=O)c4C)c(=O)oc3c2C)OC1(C)C", "target or system": "human CMG helicase", "test": "helicase activity", "setting": "125 µM, together with: ATP 0.5 mM", "measurement": "remaining activity", "value": "2%"}
{"SMILES": "C=C1C[C@@]2(C(=O)OC)C=C(C(=O)Nc3cccc(C(=O)Nc4ccc(Nc5nccc(-c6cccnc6)n5)c(C)c4)c3)C(=O)[C@@H]1C2", "target or system": "MAPK8 (Homo sapiens, UniProt P45983)", "test": "kinase activity, inhibitor", "setting": "8.363e-05 µM, unit not given, together with: 10 mM glutathione", "how to read": "relative to: no inhibitor", "measurement": "remaining activity", "value": 0.997}
{"SMILES": "Cc1nn(-c2cccc(N)c2)c(=O)c2cnc(Nc3ccc(N4CCNCC4)cc3)nc12", "target or system": "FLT3 (Homo sapiens, UniProt P36888, D835Y)", "test": "kinase activity, inhibitor, SelectScreen kinase profiling", "measurement": "IC50", "value": "> 10 µM"}
{"SMILES": "CCC1(CC)C(=O)N(c2cccc(CN3CCN(Cc4ccc5ccc6cccc7ccc4c5c67)CC3)c2)C1=O", "target or system": "DPP9", "test": "enzyme activity, inhibitor", "setting": "5 µM", "measurement": "remaining activity", "value": "> 90%"}
{"SMILES": "Cc1ncsc1-c1ccc(C(C)NC(=O)C2CC(O)CN2C(=O)C(NC(=O)CCCCCCCCCCN2CCCC(Nc3ncc(Cl)c(Nc4ccccc4S(=O)(=O)C(C)C)n3)C2)C(C)(C)C)cc1 (stereo not drawn)", "target or system": "22Rv1", "test": "RNA-seq, measured: ZMIZ1 mRNA", "setting": "concentration not given", "how to read": "relative to: DMSO", "measurement": "log2 fold change", "value": -1.35}
{"SMILES": "CN(Cc1cc(C2CC2)on1)C(=O)c1cccc(-c2ccc3c(c2)CCO3)c1", "target or system": "Acetyl-CoA synthetase (Cryptococcus neoformans, UniProt J9VFT1)", "test": "enzyme activity, inhibitor, coupled pyrophosphate", "setting": "1.56 µM", "measurement": "remaining activity", "value": "96.6% and 95.4%"}
{"SMILES": "C=C(NC(=O)c1csc(-c2nc3c(cc2O)-c2nc(cs2)C(=O)NC(C(C)O)C(=O)NC(=C(C)OC)c2nc(cs2)C(=O)NC2c4nc(cs4)C(=O)NC(COC(=O)c4c5c6c(cccc6n4O)COC(=O)C(OC4CC(C)(O)C(N(C)C)C(C)O4)C2OC5)c2nc-3cs2)n1)C(N)=O (stereo not drawn)", "test system": "ICR mice, Streptococcus pneumoniae ATCC 49169 infected, immunocompromised, blood", "setting": "intravenous, 2 mg/kg/day once daily", "measurement": "MRT(0-t)", "value": "45.6 min"}
{"SMILES": "COC(=O)[C@@]1(C)C=C(C(=O)Nc2cccc(C(=O)Nc3ccc(Nc4nccc(-c5cccnc5)n4)c(C)c3)c2)C(=O)CC1", "target or system": "MAPK14 (Homo sapiens, UniProt Q16539)", "test": "kinase activity, inhibitor", "setting": "0.06097 µM, unit not given", "how to read": "relative to: no inhibitor", "measurement": "remaining activity", "value": 1.1}
{"SMILES": "COc1ccc(NC(=O)Nc2ccc3c(c2)C(=O)N(C(C)CO)CC(C)C(CN(C)Cc2ccc4c(c2)OCO4)O3)cc1 (stereo not drawn)", "target or system": "TEK (Homo sapiens, UniProt Q02763, R849W)", "test": "kinase activity", "setting": "0.03 µM", "how to read": "relative to: control", "measurement": "remaining activity", "value": "104%"}
{"SMILES": "N#Cc1cnc2sc(C(=O)O)cc2c1N1CCc2[nH]nc(C(=O)N[C@@H](CC(=O)NCCOCCN3CCOCC3)c3cccc(Br)c3)c2C1", "target or system": "IL1RL2", "test": "SEAP reporter gene, antagonist", "test system": "HEK-Blue IL-36R cells", "setting": "0.14 µM, 6 h, together with: IL-36β 0.003 ng/mL", "how to read": "relative to: untreated", "measurement": "remaining activity", "value": "106%"}
{"SMILES": "O=C=[N][Ru-4]123([n]4c5ccc(O)cc5c5c6c(c7cc(F)c[n+]1c7c54)C(=O)NC6=O)[S+]1CC[S+]2CC[S+]3CC1 (stereo not drawn)", "target or system": "TEK (Homo sapiens, UniProt Q02763)", "test": "enzyme activity", "setting": "100 nM, human enzyme, together with: 10 µM ATP", "how to read": "relative to: untreated", "measurement": "remaining activity", "value": "86%"}
{"note": "Excerpt of the above:"}
{"SMILES": "CCC1(CC)C(=O)N(c2cccc(CN3CCN(Cc4cccc5cccnc45)CC3)c2)C1=O", "target or system": "DPP9", "test": "enzyme activity, inhibitor", "setting": "5 µM", "measurement": "remaining activity", "value": "39%"}
{"SMILES": "C[C@](C(=O)NC1CCOCC1)(c1cncnc1)N(C(=O)[C@H](F)Cl)c1ccc(OC(F)(F)Cl)cc1", "target or system": "DPP4 (Homo sapiens, UniProt P27487)", "test": "enzyme activity, inhibitor", "setting": "10 µM", "measurement": "remaining activity", "value": "95.6%"}
